Experimental data of several laboratories.
Protocols differ between the studies behind these lines. Values joined by “and” are separate records of one study, mostly repeats; a detail may differ. ± marks the error that the study gave.

With `CC(=O)[O-].O.[Cu+2].[O-]c1ccc(Br)cc1C=NCCN1CCOCC1` the inhibition was 14.3% (nitric oxide scavenging; 40 µM).
For `CCCCCCCCCCCCCCCCOP(=O)([O-])OCC[N+](C)(C)C`, the translation activity was 152% and 103% (Trypanosoma cruzi; reporter mRNA translation, inhibitor, refers to: Renilla luciferase mRNA; cell-free extract; concentration not given; relative to: positive over negative control).
`O=C(N[C@@H](Cc1ccc(OCCCCC2CCNCC2)cc1)C(=O)O)c1nc2ccccc2o1.O=C(O)C(F)(F)F`: “clot retraction velocity” 0.00488 min⁻¹ and 0.00398 min⁻¹ and 0.007 min⁻¹ (human, platelet-rich plasma; 50 µM, with: thrombin).
For `COC1OC(C)C(OC2OC(C)C(OS(=O)(=O)O)C(OC3OC(C)C(OC4OC(C)C(OS(=O)(=O)O)C(OC5OC(C)C(OC6OC(C)C(OS(=O)(=O)O)C(OC7OC(C)C(OS(=O)(=O)O)C(OS(=O)(=O)O)C7O)C6O)C(OS(=O)(=O)O)C5O)C4O)C(OS(=O)(=O)O)C3O)C2O)C(OS(=O)(=O)O)C1O` (centres unmarked), the APTT prolongation was 1.2 fold (human plasma; 128 µg/mL; relative to: control).
For `COc1cc(O)ccc1CCC(c1ccc(O)cc1)c1cc2c(c(C)c1O)OC(c1ccc(O)cc1)CC2` (mixture of isomers), “arachidonic acid level” read 111000 ± 12200 pg/mL (human blood; 30 µM, with: A23187).
The translation activity of `O=[N+]([O-])c1cn2c(n1)O[C@@H](COc1ccc(-c3ccc(F)cc3)nc1)CC2` is reported as 101% and 148% (Trypanosoma cruzi; reporter mRNA translation, inhibitor, refers to: Renilla luciferase mRNA; cell-free extract; concentration not given; relative to: positive over negative control).
`COC1CN([C@H]2CC[C@H]([C@@]3(C)Oc4c(Cl)cc(C(=O)NCc5c(SC)cc(C)[nH]c5=O)c(C)c4O3)CC2)C1` — result for “log2 fold change”: 3.13 (RNA-seq, refers to: CREG2; human, whole blood; dose not given, 24 h; relative to: pretreatment baseline).
`COc1c(Cl)cccc1Nc1c(-c2ccncc2C#C[C@@]2(C)CCCN2C(=O)/C=C/CN(C)C)[nH]c2c1C(=O)NCC2` gave a tumour regression of 36.9% (female BALB/c nude mouse, sample A PDX; 50 mg/kg once daily, 28 days, EGFR ASV).
For `COc1ccc(C([O-])=CC(=O)c2ccc(C(C)(C)C)cc2)cc1.[Ru+2].c1ccc(-c2ccnc3c2ccc2c(-c4ccccc4)ccnc23)cc1.c1ccc(-c2ccnc3c2ccc2c(-c4ccccc4)ccnc23)cc1`, “relaxed circular DNA increase” read 67% (gel electrophoresis; pUC19 plasmid DNA; no light; relative to: no compound).
`COC1OC(C)C(O)C(OC2OC(C)C(O)C(OC3OC(C)C(O)C(OC4OC(C)C(O)C(OC5OC(C)C(O)C(OC6OC(C)C(O)C(OC7OC(C)C(O)C(OS(=O)(=O)O)C7OS(=O)(=O)O)C6OS(=O)(=O)O)C5OS(=O)(=O)O)C4OS(=O)(=O)O)C3OS(=O)(=O)O)C2OS(=O)(=O)O)C1OS(=O)(=O)O` (centres unmarked) gave an APTT prolongation of 1.3 fold (human plasma; 128 µg/mL; relative to: control).
For `CCC(CC)n1c(Cc2cccs2)nc2cc(C(=O)NC(CC(=O)O)CC(C)C)ccc21` (centres unmarked), body weight read “decreased” (mouse, HFpEF model (HFD plus L-NAME); ip, 20 mg/kg/day, 2 wk).
For `COc1ccc(S(=O)(=O)N2CCc3ccccc3C2)cc1N1CCN(C(=O)c2ccc(F)cc2C(F)(F)F)CC1`, “TH-immunoreactive cell count” read 1190 ± 58.3 (CNN cell counting, refers to: tyrosine hydroxylase; rat, 6-OHDA lesion model, substantia nigra pars compacta, intact side; 0.3 µg/24 h).
The GFAP level of `CCCCCCCCCCCCCCCC(=O)OCC(CSC[C@H](N)C(=O)N[C@@H](CO)C(=O)N[C@@H](CCCCN)C(=O)N[C@@H](CCCCN)C(=O)N[C@@H](CCCCN)C(=O)N[C@@H](CCCCN)C(=O)NCCCCCC(=O)N[C@@H](CCCCN)C(=O)N[C@@H](CC(C)C)C(=O)N[C@H](C(=O)N[C@@H](Cc1ccccc1)C(=O)N[C@@H](Cc1ccccc1)C(=O)N[C@@H](Cc1ccc2ccccc2c1)C(=O)O)C(C)C)OC(=O)CCCCCCCCCCCCCCC` (some centres unmarked) is reported as 0.707 and 1.11 and 1.23 (APP/PS1 mouse, hippocampus; local injection, dose not given, unit not given; relative to: injected over adjacent side).
Under “log2 fold change”, `COc1cc2c(NC3CCN(C(C)C)CC3)cc(N3CCOCC3)nc2cc1OCCCN1CCCC1` is recorded as 0.249 (TMT proteomics, refers to: SCG2; 5xFAD mouse, hippocampus; dose not given; relative to: untreated 5xFAD).

Repeated from above:
The translation activity of `O=[N+]([O-])c1cn2c(n1)O[C@@H](COc1ccc(-c3ccc(F)cc3)nc1)CC2` is reported as 101% and 148% (Trypanosoma cruzi; reporter mRNA translation, inhibitor, refers to: Renilla luciferase mRNA; cell-free extract; concentration not given; relative to: positive over negative control).
With `CC(=O)[O-].O.[Cu+2].[O-]c1ccc(Br)cc1C=NCCN1CCOCC1` the inhibition was 14.3% (nitric oxide scavenging; 40 µM).
